# Results collected from several papers.
# Compare with care: the assays were run in different laboratories.
# Target: Peroxisome proliferator-activated receptor gamma (PPARG, Homo sapiens, UniProt P37231)
# Sequence (P37231 1-505, as in one of the studies): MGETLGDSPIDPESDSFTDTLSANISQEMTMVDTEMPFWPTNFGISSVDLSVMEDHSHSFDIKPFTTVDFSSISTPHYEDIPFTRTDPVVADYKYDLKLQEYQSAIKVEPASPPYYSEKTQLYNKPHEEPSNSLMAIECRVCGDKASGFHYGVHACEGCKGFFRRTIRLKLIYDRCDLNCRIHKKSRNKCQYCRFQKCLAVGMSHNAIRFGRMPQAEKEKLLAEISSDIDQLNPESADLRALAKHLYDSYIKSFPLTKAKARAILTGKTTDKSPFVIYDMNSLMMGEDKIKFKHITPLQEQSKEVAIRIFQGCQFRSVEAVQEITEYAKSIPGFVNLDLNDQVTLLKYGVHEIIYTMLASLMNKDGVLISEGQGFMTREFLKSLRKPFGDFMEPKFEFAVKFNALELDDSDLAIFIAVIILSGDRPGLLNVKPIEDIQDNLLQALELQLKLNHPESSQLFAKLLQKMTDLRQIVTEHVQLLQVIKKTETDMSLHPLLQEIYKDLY
SMILES,assay,setting,endpoint,value
C[C@H](CCC(=O)NCCOCCOCCOCCOCCOCCOCCOCCOCCOCCOCCOCCOCCOCCOCCOCCNC(=O)c1ccc2c(-c3ccc(C(=O)O)cc3)nn(C(=O)c3c(Cl)cccc3C(F)(F)F)c2c1)[C@H]1CC[C@H]2[C@@H]3CC=C4C[C@@H](O)CC[C@]4(C)[C@H]3CC[C@]12C,"coactivator recruitment, antagonist, TR-FRET",with: rosiglitazone 1 µM,IC50,> 100 µM
O=C(O)c1ccc(-c2nc(-c3cccc(C(F)(F)F)c3)cs2)cc1,"binding, TR-FRET",,EC50,no binding
COc1cc(/C=C/C(C)=NO)ccc1OCC(=O)Nc1ccccc1Cl (stereo in doubt),"ligand displacement, TR-FRET",,IC50,13.3 µM
COC(=O)C(C)NC(=O)/C=C/C=C/c1ccc2c(c1)OCO2 (centres unmarked),"ligand displacement, FP",,IC50,2.43 µM
Cc1cc(N2CC[C@@](C#N)(C3(C)CC3)C2=O)cc(C(=O)NCc2cc(F)cc(-c3cnn(C)c3)c2)n1,cell-free assay,,IC50,8.4 µM
COC(=O)C(CCSC)NC(=O)/C=C/C=C/c1ccc(O)c(O)c1 (centres unmarked),"ligand displacement, FP",,IC50,79.3 µM
COc1cc2c(cc1OC)C(c1ccc(F)cc1F)N(CCCOc1ccc(CCC(=O)O)cc1)CC2 (centres unmarked),,,Ki,5.74 µM
COc1ccc(NC(=O)COc2ccc(/C=C/C(C)=N/O)cc2OC)cc1,"ligand displacement, TR-FRET",,IC50,5.97 µM
